Experimental data pooled from the literature.
Lines come from different studies, so protocols differ. Values joined by “and” are separate records of one study, mostly repeats; a detail may differ. ± gives the spread as reported.
ESR2: Estrogen receptor beta (ESR2, Homo sapiens, UniProt Q92731)
Chain of UniProt Q92731 (whole entry, looked up): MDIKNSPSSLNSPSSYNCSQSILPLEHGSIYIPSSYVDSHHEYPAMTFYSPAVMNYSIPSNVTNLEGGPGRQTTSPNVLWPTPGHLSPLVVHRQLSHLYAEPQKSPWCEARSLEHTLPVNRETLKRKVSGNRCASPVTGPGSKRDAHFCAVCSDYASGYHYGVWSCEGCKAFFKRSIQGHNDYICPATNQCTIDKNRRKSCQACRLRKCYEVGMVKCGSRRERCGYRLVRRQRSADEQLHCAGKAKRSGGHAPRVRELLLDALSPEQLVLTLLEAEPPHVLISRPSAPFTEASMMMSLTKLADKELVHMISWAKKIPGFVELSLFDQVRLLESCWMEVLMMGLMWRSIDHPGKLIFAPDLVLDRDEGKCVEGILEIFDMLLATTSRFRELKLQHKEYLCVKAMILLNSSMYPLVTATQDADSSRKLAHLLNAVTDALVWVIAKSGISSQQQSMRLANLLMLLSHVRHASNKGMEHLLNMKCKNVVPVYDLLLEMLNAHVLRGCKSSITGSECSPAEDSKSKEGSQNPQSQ
GPR84: G-protein coupled receptor 84 (GPR84, Homo sapiens, UniProt Q9NQS5)
Chain of UniProt Q9NQS5 (whole entry, looked up): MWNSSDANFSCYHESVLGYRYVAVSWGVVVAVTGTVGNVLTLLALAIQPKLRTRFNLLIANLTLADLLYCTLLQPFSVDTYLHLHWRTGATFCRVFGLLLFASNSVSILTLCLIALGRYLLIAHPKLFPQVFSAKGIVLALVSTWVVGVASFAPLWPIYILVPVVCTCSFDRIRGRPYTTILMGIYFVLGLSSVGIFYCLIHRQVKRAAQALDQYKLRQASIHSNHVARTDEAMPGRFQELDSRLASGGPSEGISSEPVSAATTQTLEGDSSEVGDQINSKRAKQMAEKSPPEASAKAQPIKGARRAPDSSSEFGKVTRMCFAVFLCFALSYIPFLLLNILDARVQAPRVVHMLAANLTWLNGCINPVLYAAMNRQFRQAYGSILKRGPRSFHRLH
BRAP ZnF-UBD domain: BRCA1-associated protein, ZnF-UBD domain (BRAP, Homo sapiens, UniProt Q7Z569)
Chain of UniProt Q7Z569 (whole entry, looked up): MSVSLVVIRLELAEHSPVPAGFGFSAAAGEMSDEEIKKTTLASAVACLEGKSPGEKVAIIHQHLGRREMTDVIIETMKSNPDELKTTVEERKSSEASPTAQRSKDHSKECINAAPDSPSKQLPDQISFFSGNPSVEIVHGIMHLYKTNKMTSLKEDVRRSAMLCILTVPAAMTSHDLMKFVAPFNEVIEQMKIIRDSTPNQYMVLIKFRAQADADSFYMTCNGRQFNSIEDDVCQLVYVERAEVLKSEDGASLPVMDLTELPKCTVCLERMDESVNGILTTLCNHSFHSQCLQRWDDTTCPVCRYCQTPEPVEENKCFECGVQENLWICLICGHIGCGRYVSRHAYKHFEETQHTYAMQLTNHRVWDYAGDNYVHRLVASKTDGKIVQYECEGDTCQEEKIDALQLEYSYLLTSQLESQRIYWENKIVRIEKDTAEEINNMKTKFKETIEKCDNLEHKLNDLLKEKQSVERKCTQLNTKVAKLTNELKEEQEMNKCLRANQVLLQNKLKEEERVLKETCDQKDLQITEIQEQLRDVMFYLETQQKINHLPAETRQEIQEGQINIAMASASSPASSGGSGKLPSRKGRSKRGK
gtr1 with Gtr2: GTP-binding protein gtr1, with Gtr2 (gtr1, Schizosaccharomyces pombe, UniProt O74824)
Chain of UniProt O74824 (whole entry, looked up): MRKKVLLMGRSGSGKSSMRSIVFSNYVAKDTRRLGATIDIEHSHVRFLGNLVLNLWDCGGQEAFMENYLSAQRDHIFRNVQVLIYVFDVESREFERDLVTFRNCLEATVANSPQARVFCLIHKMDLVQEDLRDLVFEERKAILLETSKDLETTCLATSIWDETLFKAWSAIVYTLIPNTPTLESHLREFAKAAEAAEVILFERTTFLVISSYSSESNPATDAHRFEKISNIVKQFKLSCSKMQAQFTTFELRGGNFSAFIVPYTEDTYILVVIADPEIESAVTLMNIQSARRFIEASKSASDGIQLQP
HDAC4: Histone deacetylase 4 (HDAC4, Homo sapiens, UniProt P56524)
Chain of UniProt P56524 (whole entry, looked up): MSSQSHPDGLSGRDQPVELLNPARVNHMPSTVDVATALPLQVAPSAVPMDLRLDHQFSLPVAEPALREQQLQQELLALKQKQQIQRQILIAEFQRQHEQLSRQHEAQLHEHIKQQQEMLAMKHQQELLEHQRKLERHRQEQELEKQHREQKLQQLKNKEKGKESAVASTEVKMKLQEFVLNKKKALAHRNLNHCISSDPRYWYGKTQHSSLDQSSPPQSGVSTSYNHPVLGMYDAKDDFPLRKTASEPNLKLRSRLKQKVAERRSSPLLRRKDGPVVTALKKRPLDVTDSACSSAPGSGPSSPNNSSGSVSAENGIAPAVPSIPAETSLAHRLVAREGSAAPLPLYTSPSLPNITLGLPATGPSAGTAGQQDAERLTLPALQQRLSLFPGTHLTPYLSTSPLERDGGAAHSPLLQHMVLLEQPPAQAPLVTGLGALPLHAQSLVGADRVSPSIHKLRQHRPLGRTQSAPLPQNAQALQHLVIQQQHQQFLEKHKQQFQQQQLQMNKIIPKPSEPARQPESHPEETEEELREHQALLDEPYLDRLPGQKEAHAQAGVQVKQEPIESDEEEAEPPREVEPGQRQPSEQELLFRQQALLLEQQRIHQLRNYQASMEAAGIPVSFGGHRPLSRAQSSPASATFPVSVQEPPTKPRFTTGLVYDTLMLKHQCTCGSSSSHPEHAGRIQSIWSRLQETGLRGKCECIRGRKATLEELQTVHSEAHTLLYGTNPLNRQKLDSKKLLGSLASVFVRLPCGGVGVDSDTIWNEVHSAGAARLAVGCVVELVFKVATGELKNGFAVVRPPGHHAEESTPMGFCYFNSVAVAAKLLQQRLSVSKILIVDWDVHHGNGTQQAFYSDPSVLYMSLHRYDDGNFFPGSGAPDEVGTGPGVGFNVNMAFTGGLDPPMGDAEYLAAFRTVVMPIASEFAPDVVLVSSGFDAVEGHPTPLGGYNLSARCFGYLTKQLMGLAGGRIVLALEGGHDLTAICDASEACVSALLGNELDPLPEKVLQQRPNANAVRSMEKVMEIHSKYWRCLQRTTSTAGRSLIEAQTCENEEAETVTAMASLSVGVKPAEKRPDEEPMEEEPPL
Chain of UniProt P22557 (whole entry, unmodified, looked up): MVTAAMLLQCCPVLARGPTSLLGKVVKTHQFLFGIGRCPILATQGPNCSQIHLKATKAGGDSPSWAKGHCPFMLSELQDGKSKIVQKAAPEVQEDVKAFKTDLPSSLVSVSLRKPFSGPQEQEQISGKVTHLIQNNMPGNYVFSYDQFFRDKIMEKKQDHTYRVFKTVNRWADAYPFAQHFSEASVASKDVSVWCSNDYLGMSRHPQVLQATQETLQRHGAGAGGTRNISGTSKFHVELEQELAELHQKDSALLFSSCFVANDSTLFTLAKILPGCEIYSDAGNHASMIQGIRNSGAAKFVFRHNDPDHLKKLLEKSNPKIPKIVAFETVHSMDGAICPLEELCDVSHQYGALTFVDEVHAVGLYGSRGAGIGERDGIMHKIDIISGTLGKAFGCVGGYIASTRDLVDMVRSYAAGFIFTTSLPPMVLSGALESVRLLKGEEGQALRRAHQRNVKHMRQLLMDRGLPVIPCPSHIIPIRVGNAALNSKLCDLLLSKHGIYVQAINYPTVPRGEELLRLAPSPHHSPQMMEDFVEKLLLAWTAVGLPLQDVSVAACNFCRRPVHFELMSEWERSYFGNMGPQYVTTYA
Chain of UniProt P40337 (whole entry, looked up): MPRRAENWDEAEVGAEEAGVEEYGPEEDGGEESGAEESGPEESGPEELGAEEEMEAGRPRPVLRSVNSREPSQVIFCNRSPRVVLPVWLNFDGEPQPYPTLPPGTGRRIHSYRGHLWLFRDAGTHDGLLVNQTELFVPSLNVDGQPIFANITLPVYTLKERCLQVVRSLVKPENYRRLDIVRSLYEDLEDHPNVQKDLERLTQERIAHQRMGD
Chain of UniProt Q86WV6 (whole entry, unmodified, looked up): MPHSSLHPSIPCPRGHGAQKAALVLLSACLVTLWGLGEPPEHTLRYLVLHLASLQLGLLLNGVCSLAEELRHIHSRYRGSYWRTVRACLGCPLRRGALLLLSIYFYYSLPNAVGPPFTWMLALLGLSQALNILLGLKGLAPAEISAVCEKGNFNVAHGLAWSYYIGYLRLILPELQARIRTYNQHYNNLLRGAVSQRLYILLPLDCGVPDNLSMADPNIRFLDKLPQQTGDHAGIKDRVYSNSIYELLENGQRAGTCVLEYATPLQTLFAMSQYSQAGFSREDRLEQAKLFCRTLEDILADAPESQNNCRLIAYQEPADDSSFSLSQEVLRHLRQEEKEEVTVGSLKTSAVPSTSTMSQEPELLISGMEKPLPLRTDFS
Chain of UniProt P35218 (whole entry, looked up): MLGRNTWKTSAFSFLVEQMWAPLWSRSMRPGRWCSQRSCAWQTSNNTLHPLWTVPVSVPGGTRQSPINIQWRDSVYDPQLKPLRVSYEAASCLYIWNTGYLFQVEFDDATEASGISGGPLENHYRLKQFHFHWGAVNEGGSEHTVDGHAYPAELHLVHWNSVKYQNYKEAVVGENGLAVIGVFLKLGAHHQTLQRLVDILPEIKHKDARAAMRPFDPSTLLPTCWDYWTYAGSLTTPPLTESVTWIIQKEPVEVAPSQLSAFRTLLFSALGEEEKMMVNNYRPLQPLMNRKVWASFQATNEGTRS
Chain of UniProt Q96GD4 (whole entry, looked up): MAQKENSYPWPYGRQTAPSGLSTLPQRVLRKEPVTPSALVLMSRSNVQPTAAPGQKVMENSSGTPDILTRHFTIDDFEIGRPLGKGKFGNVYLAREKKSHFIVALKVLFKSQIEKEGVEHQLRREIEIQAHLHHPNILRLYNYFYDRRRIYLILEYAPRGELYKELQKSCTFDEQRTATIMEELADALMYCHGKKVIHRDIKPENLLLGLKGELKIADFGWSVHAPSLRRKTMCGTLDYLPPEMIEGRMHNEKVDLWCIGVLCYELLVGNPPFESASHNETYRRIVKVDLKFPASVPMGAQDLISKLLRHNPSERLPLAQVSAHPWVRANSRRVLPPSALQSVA
Chain of UniProt Q16774 (whole entry, unmodified, looked up): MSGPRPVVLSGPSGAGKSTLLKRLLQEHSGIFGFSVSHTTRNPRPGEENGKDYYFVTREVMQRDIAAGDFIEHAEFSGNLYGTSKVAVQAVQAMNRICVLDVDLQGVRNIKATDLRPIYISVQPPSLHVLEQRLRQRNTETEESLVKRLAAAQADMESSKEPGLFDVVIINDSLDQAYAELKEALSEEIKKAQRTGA

C[C@@H]1O[C@@H](Oc2cc(O)c3c(c2)O[C@H](c2ccc(O)c(O)c2)[C@@H](O)C3=O)[C@H](O)[C@H](O)[C@H]1O — EC50 (ESR2; array formation, agonist; GFP-ERβ PRL-HeLa; 1 h): 1.04 µM
CCc1ccc(CCNc2cc(=O)[nH]c(=O)[nH]2)cc1 — EC50 (GPR84; cAMP level, agonist; human cells): 0.00433 ± 0.00151 µM
O=C(O)Cc1nc2ccccc2o1 — Kd (BRAP ZnF-UBD domain): > 1000 µM
C[C@@H]1C[C@H]2O[C@@H]2/C=C\C=C\C(=O)Cc2c(Cl)c(O)cc(O)c2C(=O)O1 — Kd (TGF-beta receptor type-2 (TGFBR2, Homo sapiens, UniProt P37173); competition binding; 11-point threefold dilution): > 10 µM
CCCN1CCN(c2ccc(-c3cncc(Cl)c3N3CCC4(CCNC4=O)CC3)cc2)CC1 — Kd (Protein FAM89A (FAM89A, Homo sapiens, UniProt Q96GI7); SILAC displacement; LS174T-L5 cell lysate): 3.59 µM
Nc1ncnc2c1ncn2[C@@H]1O[C@H](COP(=O)(O)O)[C@@H](OP(=O)(O)O)[C@H]1O — Kd (Sulfotransferase 2A1 (SULT2A1, Homo sapiens, UniProt Q06520); intrinsic fluorescence titration; pH 7.4, without DHEA): 0.4 ± 0.06 µM
C=CC1=C(C)C2=Cc3c(C=C)c(C)c4[n]3[Fe]([Cl])[n]3c(c(C)c(CCC(=O)O)c3=CC3=NC(=C4)C(C)=C3CCC(=O)O)=CC1=N2 — Kd (5-aminolevulinate synthase, erythroid-specific, mitochondrial, N-terminal truncation (Human, UniProt P22557); binding): 0.589 µM
COc1ccc(-c2coc3cc(O)ccc3c2=O)cc1O — EC50 (ESR2; array formation, agonist; GFP-ERβ PRL-HeLa; 1 h): 1.75 µM
Nc1nc2c(ncn2[C@@H]2O[C@H](COP(=O)(O)OP(=O)(O)OP(=O)(O)O)[C@@H](O)[C@H]2O)c(=O)[nH]1 — Kd (gtr1 with Gtr2; binding, UV crosslinking equilibrium titration; 4 °C, no 7.4): 0.07 µM
O=C(O)Cc1c[nH]c2ccccc12 — Kd (Receptor protein kinase TMK1, extracellular domain (TMK1, Arabidopsis thaliana, UniProt P43298); binding, microscale thermophoresis; HA-tagged protein from protoplasts): 1.82 µM
O=C(O)CCn1cnc2ccccc21 — Kd (BRAP ZnF-UBD domain): > 1000 µM
Nc1ncnc2c1ncn2[C@@H]1O[C@H](COP(=O)(O)OP(=O)(O)O)[C@@H](O)[C@H]1O — Kd (GUK1 (Homo sapiens, UniProt Q16774, R137A); binding, ITC; 25 °C, added: GMP): 120 ± 20 µM
NCCS(=O)(=O)O — Kd (Sodium- and chloride-dependent taurine transporter (SLC6A6, Homo sapiens, UniProt P31641, F300A); microscale thermophoresis; F300A mutant): 657 ± 804 µM
Nc1ncnc2c1ncn2[C@@H]1O[C@H](COP(=O)(O)OP(=O)(O)O)[C@@H](O)[C@H]1O — Kd (Creatine kinase U-type, mitochondrial (CKMT1A, Homo sapiens, UniProt P12532); microscale thermophoresis; pH 7.0, WT mutant, no substrate): 5 ± 1 µM
O=C1CC(C(=O)O)NC(=O)N1 (stereo not shown) — Kd (Dihydroorotate dehydrogenase A (fumarate) (pyrDA, Lactococcus lactis subsp. cremoris, UniProt A2RJT9); binding, stopped-flow; Lactococcus lactis, wild-type): 145 ± 54 µM
CC(=O)N[C@H](C(=O)N1C[C@H](O)C[C@H]1C(=O)NCc1ccc(-c2scnc2C)cc1)C(C)(C)SCCCCCCNC(=O)C[C@@H]1N=C(c2ccc(Cl)cc2)c2c(sc(C)c2C)-n2c(C)nnc21 — Kd (BRD2/VHL, BD2; with VCB (Homo sapiens, UniProt P25440+P40337); ITC; 25 °C, PROTAC:Brd2^BD2, ternary): 0.078 ± 0.006 µM
CCN(CC)Cc1ccc2cc(COC(=O)Nc3ccc(C(=O)NO)cc3)ccc2c1 — Kd (HDAC4; inhibitor, competition pulldown; SW620 and MV4-11 lysate; 1 h): > 30.2 µM
O=C(O)CSc1nnc(NC(=O)COc2ccccc2)s1 — Kd (BRAP ZnF-UBD domain): 703 µM
COc1cc(Nc2ncc3c(n2)-c2ccc(Cl)cc2C(c2c(F)cccc2OC)=NC3)ccc1C(=O)NCCOCCOCCNC(=O)COc1cccc2c1C(=O)N(C1CCC(=O)NC1=O)C2=O (stereo not shown) — Kd (Aurora kinase B (AURKB, Homo sapiens, UniProt Q96GD4); binding, kinobead competition; MV4-11 cell lysate): 5.1 µM
NC(=O)[C@H]1CCCN1C(=O)CCC(=O)O — Kd (BRAP ZnF-UBD domain): 462 µM
Nc1nc(-c2ccc(Cl)c(S(N)(=O)=O)c2)cs1 — Kd (Carbonic anhydrase 5A, mitochondrial (CA5A, Homo sapiens, UniProt P35218); thermal shift; pH 7.0, 25 °C): 0.67 µM
Cc1cc(NC(=O)CCC(=O)O)nn1C — Kd (BRAP ZnF-UBD domain): > 1000 µM
CCOc1cc(-c2nncn2C)ccc1Nc1ncc2cc(C)nc(NCC(C)(C)C)c2n1 — Kd (CLK; KINOMEscan): 0.19 µM
Cn1cc(-c2ccc(S(=O)(=O)n3ccc(/C=C/C(=O)Nc4ccccc4N)c3)cc2)cn1 — Kd (HDAC4; inhibitor, competition pulldown; SW620 and MV4-11 lysate; 1 h): > 30.2 µM
O=C(O)CC(=O)C(=O)O — Kd (Uncharacterized protein (Pelagibacter ubique, UniProt Q4FKX4); isothermal titration calorimetry; Candidatus Pelagibacter ubique): 0.0124 µM and 0.00687 µM
O=c1ccn([C@@H]2O[C@H](COP(=O)(O)OP(=O)(O)O)[C@@H](O)[C@H]2O)c(=O)[nH]1 — Kd (Histo-blood group ABO system transferase (ABO, Homo sapiens, UniProt P16442, G235S/G268A/L266M/R176G/W181M); methyl-TROSY NMR titration lineshape; mutant presaturated with H-disaccharide): 486 ± 7 µM
C#Cc1c(F)ccc2cc(O)cc(-c3ncc4c(N5CC6CCC(C5)N6)nc(OC[C@@]56CCCN5C[C@H](F)C6)nc4c3F)c12 — Kd (RIT1, GDP-bound (Homo sapiens, UniProt Q92963); binding, surface plasmon resonance): > 30 µM
Nc1ncnc2c1ncn2[C@@H]1O[C@@H]2COP(=O)(O)O[C@@H]3[C@H](O)[C@@H](COP(=O)(O)O[C@H]2[C@H]1O)O[C@H]3n1cnc2c(N)ncnc21 — Kd (Stimulator of interferon genes protein (STING1, Homo sapiens, UniProt Q86WV6, R220H); binding): 4.98 ± 0.82 µM
O=C(O)CCn1sc2ccccc2c1=O — Kd (BRAP ZnF-UBD domain): > 1000 µM
O=C(NO)c1cnc(NC2(c3ccccc3)CC2)nc1 — Kd (HDAC4; inhibitor, competition pulldown; SW620 and MV4-11 lysate; 1 h): > 30.2 µM
CCCCCCCNc1[nH]c(=O)[nH]c(=O)c1N=O — EC50 (GPR84; cAMP): 0.457 µM
O=C(O)CNc1ncnc2ccccc12 — Kd (BRAP ZnF-UBD domain): > 1000 µM
Nc1nc2c(ncn2[C@@H]2O[C@H](COP(=O)(O)OP(=O)(O)O)[C@@H](O)[C@H]2O)c(=O)[nH]1 — Kd (gtr1 with Gtr2; binding, UV crosslinking equilibrium titration; 4 °C, no 7.4): 0.63 µM
CC(C)(COP(=O)(O)OP(=O)(O)OC[C@H]1O[C@@H](n2cnc3c(N)ncnc32)[C@H](O)[C@@H]1OP(=O)(O)O)[C@@H](O)C(=O)NCCC(=O)NCCS — Kd (N-alpha-acetyltransferase 40 (NAA40, Homo sapiens, UniProt Q86UY6); competitor, competition MS pulldown; SW-620 cell lysate; added: photo-immobilized beads): 5.46 µM
Cc1ccc(C(=O)Nc2ccc(S(=O)(=O)O)c3cc(S(=O)(=O)O)cc(S(=O)(=O)O)c23)cc1NC(=O)c1cccc(NC(=O)Nc2cccc(C(=O)Nc3cc(C(=O)Nc4ccc(S(=O)(=O)O)c5cc(S(=O)(=O)O)cc(S(=O)(=O)O)c45)ccc3C)c2)c1 — Kd (Electrogenic aspartate/glutamate antiporter SLC25A13, mitochondrial (SLC25A13, Homo sapiens, UniProt Q9UJS0); binding, isothermal titration calorimetry; pH 6.5, 18 °C, vesicle-reconstituted): 7.58 ± 3.17 µM
N#Cc1c2n(c3c(=O)n(CC(=O)O)cnc13)CCCC2 — Kd (BRAP ZnF-UBD domain): 215 µM
COc1cc(O)c2c(c1)oc(=O)c1c3cc(O)c(O)cc3oc21 — Kd (Alpha-glucosidase MAL12 (MAL12, Saccharomyces cerevisiae S288c, UniProt P53341); fluorescence quenching; 310 K): 13.6 µM

Excerpt of the above:
O=C(O)CSc1nnc(NC(=O)COc2ccccc2)s1 — Kd (BRAP ZnF-UBD domain): 703 µM
COc1cc(Nc2ncc3c(n2)-c2ccc(Cl)cc2C(c2c(F)cccc2OC)=NC3)ccc1C(=O)NCCOCCOCCNC(=O)COc1cccc2c1C(=O)N(C1CCC(=O)NC1=O)C2=O (stereo not shown) — Kd (Aurora kinase B (AURKB, Homo sapiens, UniProt Q96GD4); binding, kinobead competition; MV4-11 cell lysate): 5.1 µM
NC(=O)[C@H]1CCCN1C(=O)CCC(=O)O — Kd (BRAP ZnF-UBD domain): 462 µM
